Results from different studies.
Each line is one published result; not all experiments were run side by side.
Matrix: plasma
Route: oral

Nc1cc(F)ccc1NC(=O)c1ccc(CNC(=O)/C=C/c2cccnc2)cc1
half-life (human; 30 mg, patients): 17.1 h

C[C@@H]1CCC[C@H](n2cnc(-c3cc(Cl)ccc3-n3cc(Cl)nn3)cc2=O)c2cc(ccn2)-c2c(cnn2C(F)F)NC1=O
half-life (human; 4 mg, single dose, fasted, healthy volunteers): 10.3 h

C=CC(=O)Nc1cc(Nc2ncc(C(=O)OC(C)C)c(-c3cn(C)c4ccccc34)n2)c(OC)cc1N(C)CCN(C)C
half-life (human; 160 mg): 28 h

CC(C)(/C=C(\C#N)C(=O)N1CCC[C@@H](n2nc(-c3ccc(Oc4ccccc4)cc3F)c3c(N)ncnc32)C1)N1CCN(C2COC2)CC1
half-life (human; 100 mg, single dose, healthy volunteers): 1.8 h

C[C@H](N)C(=O)N1C[C@H](CCCB(O)O)[C@](N)(C(=O)O)C1
half-life (human; 150 mg, single dose, patients): 5.7 h

COc1cccc(-c2ccc(NC(=O)C3=C(C(=O)O)CCC3)c(F)c2)c1
half-life (male human; 30 mg, single dose, fasted, healthy volunteers): ~40 h

CNC(=O)c1ccccc1Sc1ccc2c(/C=C/c3ccccn3)n[nH]c2c1
half-life (human; 5 mg, single dose, fed): 4.8 h

O=C(O)COC[C@H]1CC[C@H](COC(=O)N(c2ccccc2)c2ccc(Cl)cc2)CC1
half-life (human; 200 µg, single dose, healthy volunteers): 26.4 h

O=C(c1nc2n(n1)[C@H](c1ccccc1)C[C@@H]2F)C1CC1
half-life (human; 25 mg, single dose, fasted, healthy volunteers): 10.4 h

CNc1nc(Nc2ccc(-n3cnc(C)n3)c(OC)c2)nc2c1CC[C@H]2c1ccc(F)cc1
half-life (human; 1200 mg, single dose, healthy volunteers): 22 h

CCCOc1ccc([C@H]2CNC(=O)N2c2ccc3[nH]cnc3c2)cc1
half-life (human; 800 mg, multiple doses, twice daily, fasted): 7.67 h

CNCc1ccc(-c2[nH]c3cc(F)cc4c3c2CCNC4=O)cc1
half-life (human; 600 mg, single dose, fasted): 18.7 h

C#C[C@]1(CO)O[C@@H](n2cnc3c(N)nc(F)nc32)C[C@@H]1O
half-life (human; 30 mg, single dose, fasted, healthy volunteers): 48.6 h

Nc1ccc(-c2nc([C@H]3CCc4cc(-c5cc(Cl)ccc5-n5cnnn5)cc(=O)n43)c(F)[nH]2)c(F)n1
half-life (human; 1 mg, single dose, fasted): 16.5 h

CC(=O)N[C@H]1CC[C@H](NC(=O)CN2CCN(c3nncc(-c4ccc(C)cc4)n3)CC2)CC1
half-life (male human; 100 mg, single dose, fasted, healthy volunteers): 10 h

CS(=O)(=O)n1cc2c(n1)CN([C@H]1CO[C@H](c3cc(F)ccc3F)[C@@H](N)C1)C2
half-life (male human; 100 mg, single dose, fasted, healthy volunteers): 43.4 h

C=CC(=O)Nc1cc(Nc2ncc(C(=O)OC(C)C)c(-c3cn(C)c4ccccc34)n2)c(OC)cc1N(C)CCN(C)C
half-life (human; single dose): 20 h
